Assay results collected from several papers.
“And” joins repeats or separate records; there may be more than shown. Numbers after ± are the reported error.
AHR: Aryl hydrocarbon receptor (AHR, Homo sapiens, UniProt P35869)
Sequence of UniProt P35869 (whole entry, looked up): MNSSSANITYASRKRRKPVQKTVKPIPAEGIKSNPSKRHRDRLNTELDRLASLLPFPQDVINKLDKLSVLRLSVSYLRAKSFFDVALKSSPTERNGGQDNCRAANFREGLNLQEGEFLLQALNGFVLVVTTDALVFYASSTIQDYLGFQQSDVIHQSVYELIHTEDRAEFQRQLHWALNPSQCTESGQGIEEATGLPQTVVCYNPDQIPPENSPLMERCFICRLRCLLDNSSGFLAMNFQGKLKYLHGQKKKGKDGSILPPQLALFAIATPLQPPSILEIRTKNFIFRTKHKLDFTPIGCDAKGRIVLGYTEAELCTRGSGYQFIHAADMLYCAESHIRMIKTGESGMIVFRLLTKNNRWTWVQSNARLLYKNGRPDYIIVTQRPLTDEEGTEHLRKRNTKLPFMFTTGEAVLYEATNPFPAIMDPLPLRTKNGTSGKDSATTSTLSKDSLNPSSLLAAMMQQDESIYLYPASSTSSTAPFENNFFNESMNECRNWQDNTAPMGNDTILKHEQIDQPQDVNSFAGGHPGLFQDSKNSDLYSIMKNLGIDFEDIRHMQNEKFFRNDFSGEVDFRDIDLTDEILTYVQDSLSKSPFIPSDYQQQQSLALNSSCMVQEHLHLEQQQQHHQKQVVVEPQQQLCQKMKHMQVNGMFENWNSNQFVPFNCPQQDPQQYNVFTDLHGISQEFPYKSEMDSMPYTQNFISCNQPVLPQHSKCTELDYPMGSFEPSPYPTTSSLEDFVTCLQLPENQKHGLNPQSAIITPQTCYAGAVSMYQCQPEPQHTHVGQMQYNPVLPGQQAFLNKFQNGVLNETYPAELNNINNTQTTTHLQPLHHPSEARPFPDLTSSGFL
NR1H3: Oxysterols receptor LXR-alpha (NR1H3, Homo sapiens, UniProt Q13133)
Sequence of UniProt Q13133 (whole entry, looked up): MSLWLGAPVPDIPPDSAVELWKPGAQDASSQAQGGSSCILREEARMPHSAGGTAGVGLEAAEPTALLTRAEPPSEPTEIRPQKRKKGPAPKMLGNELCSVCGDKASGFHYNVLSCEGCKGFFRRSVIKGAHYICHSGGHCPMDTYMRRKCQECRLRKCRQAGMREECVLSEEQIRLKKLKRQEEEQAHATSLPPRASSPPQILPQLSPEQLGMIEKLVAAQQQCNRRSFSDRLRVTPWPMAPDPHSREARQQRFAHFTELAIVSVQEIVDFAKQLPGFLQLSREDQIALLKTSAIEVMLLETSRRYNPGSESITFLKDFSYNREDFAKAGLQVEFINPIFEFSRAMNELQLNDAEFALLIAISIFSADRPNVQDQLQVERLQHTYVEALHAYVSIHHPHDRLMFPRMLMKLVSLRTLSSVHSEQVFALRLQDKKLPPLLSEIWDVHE
T1: dsDNA, duplex; GAGGCCTC
T2: DNA aptamer C13T; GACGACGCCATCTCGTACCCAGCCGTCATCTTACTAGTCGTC
Sequence of UniProt Q16774 (whole entry, looked up): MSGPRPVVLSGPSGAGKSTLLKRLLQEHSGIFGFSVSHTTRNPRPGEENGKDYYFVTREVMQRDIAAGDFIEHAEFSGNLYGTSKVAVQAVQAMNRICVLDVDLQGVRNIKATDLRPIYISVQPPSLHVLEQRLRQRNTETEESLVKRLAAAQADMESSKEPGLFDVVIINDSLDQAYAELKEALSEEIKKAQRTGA
Sequence of UniProt P51575 (whole entry, unmodified, looked up): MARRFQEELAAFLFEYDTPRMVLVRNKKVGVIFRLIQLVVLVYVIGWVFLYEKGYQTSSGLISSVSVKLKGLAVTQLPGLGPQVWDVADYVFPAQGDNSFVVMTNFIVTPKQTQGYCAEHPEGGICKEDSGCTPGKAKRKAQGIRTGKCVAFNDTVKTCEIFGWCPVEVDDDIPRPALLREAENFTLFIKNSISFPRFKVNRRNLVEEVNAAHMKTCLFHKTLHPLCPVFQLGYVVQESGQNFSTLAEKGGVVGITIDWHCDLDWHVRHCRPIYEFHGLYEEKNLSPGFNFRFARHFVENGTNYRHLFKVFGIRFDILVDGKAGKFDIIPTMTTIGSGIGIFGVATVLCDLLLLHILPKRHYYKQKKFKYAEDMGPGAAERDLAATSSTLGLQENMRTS
Sequence of UniProt P00519 (whole entry, unmodified, looked up): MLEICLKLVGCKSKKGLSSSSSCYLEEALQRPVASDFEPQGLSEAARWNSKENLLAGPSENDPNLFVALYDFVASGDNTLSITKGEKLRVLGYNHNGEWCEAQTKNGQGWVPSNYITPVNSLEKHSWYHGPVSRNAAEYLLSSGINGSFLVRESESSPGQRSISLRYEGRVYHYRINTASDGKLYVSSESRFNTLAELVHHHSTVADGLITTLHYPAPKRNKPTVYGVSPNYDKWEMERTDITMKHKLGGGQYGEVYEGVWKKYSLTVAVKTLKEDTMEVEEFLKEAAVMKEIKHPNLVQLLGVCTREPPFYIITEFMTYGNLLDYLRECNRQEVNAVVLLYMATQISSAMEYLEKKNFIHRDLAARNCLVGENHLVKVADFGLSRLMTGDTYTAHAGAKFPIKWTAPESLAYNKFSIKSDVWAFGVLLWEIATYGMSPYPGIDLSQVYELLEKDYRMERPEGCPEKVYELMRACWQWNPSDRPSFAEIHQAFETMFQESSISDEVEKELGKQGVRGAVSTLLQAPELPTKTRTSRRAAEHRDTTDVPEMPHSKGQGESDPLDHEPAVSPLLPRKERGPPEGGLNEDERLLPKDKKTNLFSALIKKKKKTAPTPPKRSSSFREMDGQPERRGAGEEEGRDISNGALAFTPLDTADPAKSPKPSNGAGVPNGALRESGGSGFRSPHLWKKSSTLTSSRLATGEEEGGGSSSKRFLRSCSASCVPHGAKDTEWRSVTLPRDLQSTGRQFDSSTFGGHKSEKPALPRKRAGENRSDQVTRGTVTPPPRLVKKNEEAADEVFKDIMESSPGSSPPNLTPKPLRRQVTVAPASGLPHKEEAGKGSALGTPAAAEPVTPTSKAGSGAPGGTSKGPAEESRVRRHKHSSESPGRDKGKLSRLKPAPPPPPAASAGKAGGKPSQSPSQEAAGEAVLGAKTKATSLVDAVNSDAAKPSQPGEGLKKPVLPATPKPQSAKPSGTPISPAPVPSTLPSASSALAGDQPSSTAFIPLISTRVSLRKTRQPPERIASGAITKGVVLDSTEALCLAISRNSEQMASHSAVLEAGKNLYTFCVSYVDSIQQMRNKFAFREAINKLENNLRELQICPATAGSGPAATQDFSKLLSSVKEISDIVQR
Sequence of UniProt Q5A6T5 (whole entry, looked up): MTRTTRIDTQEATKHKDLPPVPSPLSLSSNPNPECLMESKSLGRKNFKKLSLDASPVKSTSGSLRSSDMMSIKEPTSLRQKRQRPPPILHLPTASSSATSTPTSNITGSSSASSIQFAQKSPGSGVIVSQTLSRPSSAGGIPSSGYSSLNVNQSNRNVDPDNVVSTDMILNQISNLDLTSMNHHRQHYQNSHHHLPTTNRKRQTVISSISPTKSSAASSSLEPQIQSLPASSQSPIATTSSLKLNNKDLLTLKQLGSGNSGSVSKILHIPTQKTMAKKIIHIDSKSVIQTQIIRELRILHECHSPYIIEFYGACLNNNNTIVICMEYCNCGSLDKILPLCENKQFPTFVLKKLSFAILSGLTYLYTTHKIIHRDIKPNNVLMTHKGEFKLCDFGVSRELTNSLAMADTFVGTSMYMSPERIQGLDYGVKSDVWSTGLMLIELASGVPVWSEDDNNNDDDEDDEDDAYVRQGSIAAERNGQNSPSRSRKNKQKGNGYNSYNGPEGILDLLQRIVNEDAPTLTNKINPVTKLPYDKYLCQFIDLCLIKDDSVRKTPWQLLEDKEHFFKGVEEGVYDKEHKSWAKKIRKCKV
Sequence of UniProt P25090 (whole entry, looked up): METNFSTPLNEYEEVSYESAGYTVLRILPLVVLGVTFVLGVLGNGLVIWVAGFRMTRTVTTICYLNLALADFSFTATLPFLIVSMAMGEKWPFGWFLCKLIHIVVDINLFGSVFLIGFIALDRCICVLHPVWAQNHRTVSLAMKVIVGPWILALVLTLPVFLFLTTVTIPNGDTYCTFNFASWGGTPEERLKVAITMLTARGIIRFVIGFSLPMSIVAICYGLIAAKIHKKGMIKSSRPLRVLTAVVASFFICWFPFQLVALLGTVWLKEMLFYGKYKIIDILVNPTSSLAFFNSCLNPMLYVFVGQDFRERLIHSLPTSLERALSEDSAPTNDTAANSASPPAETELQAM
Sequence of UniProt Q9UKI8 (whole entry, looked up): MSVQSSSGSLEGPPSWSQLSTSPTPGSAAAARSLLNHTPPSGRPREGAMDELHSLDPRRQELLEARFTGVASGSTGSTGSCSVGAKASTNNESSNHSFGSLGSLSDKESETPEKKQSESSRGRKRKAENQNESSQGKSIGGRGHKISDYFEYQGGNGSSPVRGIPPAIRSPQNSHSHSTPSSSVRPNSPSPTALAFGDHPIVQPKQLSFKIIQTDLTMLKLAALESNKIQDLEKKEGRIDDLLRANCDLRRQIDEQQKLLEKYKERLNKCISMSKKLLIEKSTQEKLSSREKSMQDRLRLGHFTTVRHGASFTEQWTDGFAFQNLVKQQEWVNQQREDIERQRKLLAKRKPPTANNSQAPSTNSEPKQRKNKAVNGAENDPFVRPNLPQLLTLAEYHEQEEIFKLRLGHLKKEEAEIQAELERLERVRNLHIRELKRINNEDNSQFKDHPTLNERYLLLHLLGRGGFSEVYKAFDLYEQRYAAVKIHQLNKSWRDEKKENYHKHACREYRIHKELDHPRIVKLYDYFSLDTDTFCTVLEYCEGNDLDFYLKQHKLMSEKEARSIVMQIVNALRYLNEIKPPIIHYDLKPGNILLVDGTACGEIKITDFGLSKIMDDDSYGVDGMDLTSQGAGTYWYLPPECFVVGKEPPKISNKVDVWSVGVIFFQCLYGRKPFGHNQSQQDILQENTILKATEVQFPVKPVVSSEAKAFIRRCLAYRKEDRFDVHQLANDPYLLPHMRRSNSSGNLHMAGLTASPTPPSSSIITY
Sequence of UniProt P0AC13 (whole entry, looked up): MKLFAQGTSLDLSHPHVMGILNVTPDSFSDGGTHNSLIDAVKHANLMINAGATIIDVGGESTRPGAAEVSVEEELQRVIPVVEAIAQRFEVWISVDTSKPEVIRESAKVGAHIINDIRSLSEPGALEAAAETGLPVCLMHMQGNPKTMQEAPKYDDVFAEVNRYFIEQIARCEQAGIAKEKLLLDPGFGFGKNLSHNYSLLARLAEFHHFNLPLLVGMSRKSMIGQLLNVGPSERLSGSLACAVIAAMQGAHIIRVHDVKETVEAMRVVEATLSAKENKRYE

Nc1nc2c(ncn2[C@@H]2O[C@H](COP(=O)(O)O)[C@@H](O)[C@H]2O)c(=O)[nH]1 — reaction velocity (GUK1 (Homo sapiens, UniProt Q16774); enzyme activity, NADH-coupled; 2000 µM, with: NaCl 10 mM): 0.0995 µM/s and 0.099 µM/s and 0.104 µM/s
C#Cc1cccc(Oc2ccc(-c3nn([C@@H]4CCCN(C(=O)C=C)C4)c4ncnc(N)c34)cc2)c1 — SILAC ratio (AHR; ABPP-SILAC; 1 µM, 1 h; relative to: DMSO): 20
Cc1cc2ccccc2c2ccc3ccccc3c12 — fold change (Aryl hydrocarbon receptor (Danio rerio, UniProt Q9YGV3); reporter gene, agonist, luciferase reporter; ZF-4; 13.72 µM; relative to: vehicle control): 2.21
c1coc(-c2n[nH]cc2-c2ccnc3ccccc23)c1 — log2 fold change (Serine/threonine-protein kinase STE7 homolog (HST7, Candida albicans, UniProt Q5A6T5); kinase binding, MIB/MS competition; Candida albicans lysate; 10 µM; relative to: DMSO, negative = stronger binding): 0.04
COC(=O)[C@H](Cc1c[nH]c2c(C)cccc12)NC(=O)[C@@H](OC)[C@@H]1Cc2cc3cc(O[C@H]4C[C@@H](O[C@H]5C[C@@H](O)[C@H](O)[C@@H](C)O5)[C@H](O)[C@@H](C)O4)c(C)c(O)c3c(O)c2C(=O)[C@H]1O[C@H]1C[C@@H](O[C@H]2C[C@@H](O[C@H]3C[C@](C)(O)[C@H](O)[C@@H](C)O3)[C@@H](O)[C@@H](C)O2)[C@H](O)[C@@H](C)O1 — Kd (T1, dsDNA, duplex; intrinsic fluorescence titration; apparent, tight-binding limit): 2.6 µM
Nc1ncnc2c1ncn2[C@@H]1O[C@H](COP(=O)(O)CP(=O)(O)OP(=O)(O)O)[C@@H](O)[C@H]1O — calcium influx (P2X purinoceptor 1 (P2RX1, Homo sapiens, UniProt P51575, F188L); calcium influx; 3.16 µM; relative to: ionomycin response): 86.7% and 95.9% and 87.8%
CCCCCCCCCCCCC/C=C/[C@@H](O)[C@H](CO)NC(=O)CCCCCCCCCCCCCCCCC — lipid fraction bound (Protein SET (SET, Homo sapiens, UniProt Q01105, K222D); lipid binding, GFP pull-down LC-MS/MS; A549 overexpressing GFP-tagged protein; relative to: eluate plus flow-through): 33%
N#Cc1ccc(C[C@H](NC(=O)c2cc3cc([N+](=O)[O-])ccc3[nH]2)C(=O)N2CCc3ccccc32)cc1 — activity (N-formyl peptide receptor 2 (FPR2, Homo sapiens, UniProt P25090); cell-based; concentration not given): inactive
COc1cccc2c(Nc3ccc4[nH]c(C(=O)N/N=C/c5ccc(SC)cc5)cc4c3)cc(C)nc12 — activation (NR1H3; reporter gene, Gal4 hybrid reporter; 3 µM; relative to: vehicle): 0.72 fold
COC(=O)c1cccc(C(=O)c2c[nH]c3ncccc23)n1 — Emax (AHR; reporter gene, agonist, XRE luciferase; HepG2; relative to: ITE): 48 ± 5%
C[C@H](CCCOc1cccc(CO)c1)[C@H]1CC[C@H]2[C@@H]3CC=C4C[C@@H](O)CC[C@]4(C)[C@H]3CC[C@]12C — efficacy (NR1H3; reporter gene, GAL4-LBD transactivation; HepG2): 14.6 ± 0.8%
CN(C)c1ncc(F)c(-c2cnn3ncccc23)n1 — remaining binding (Tyrosine-protein kinase ABL1 (ABL1, Homo sapiens, UniProt P00519, F317I); KINOMEscan; 1 µM; relative to: control): 67% and 96%
CC[C@@H]1[C@H](F)C(=O)N[C@@H]1COc1nccc2cc(C(N)=O)c(OC)cc12 — inhibition (Serine/threonine-protein kinase tousled-like 1 (TLK1, Homo sapiens, UniProt Q9UKI8); ATP-site probe binding, ActivX profiling; THP-1 cell lysate; 0.01 mM, Lys2 site): 1.9%
Cc1cc(NS(=O)(=O)c2ccc(N)cc2)no1 — melting temperature (Dihydropteroate synthase (folP, Bacteria, UniProt P0AC13); CETSA HiBiT; Escherichia coli, whole cells): 55.7 °C
COc1cc(C#CC(=O)CC(C)C)ccc1O — remaining activity (HTH-type quorum-sensing regulator RhlR (rhlR, Pseudomonas aeruginosa, UniProt P54292); reporter gene, inhibitor, quorum sensing reporter strain; 10 µM, 1.5 h; relative to: DMSO): 81%
CC1(C)S[C@@H]2[C@H](NC(=O)[C@H](N)c3ccccc3)C(=O)N2[C@H]1C(=O)O — Kd (T2, DNA aptamer C13T; competition, fluorescence displacement; apparent, with: ThT 10 µM): 196 µM

For quick reference, copied from above:
CC[C@@H]1[C@H](F)C(=O)N[C@@H]1COc1nccc2cc(C(N)=O)c(OC)cc12 — inhibition (Serine/threonine-protein kinase tousled-like 1 (TLK1, Homo sapiens, UniProt Q9UKI8); ATP-site probe binding, ActivX profiling; THP-1 cell lysate; 0.01 mM, Lys2 site): 1.9%
Cc1cc(NS(=O)(=O)c2ccc(N)cc2)no1 — melting temperature (Dihydropteroate synthase (folP, Bacteria, UniProt P0AC13); CETSA HiBiT; Escherichia coli, whole cells): 55.7 °C
